Measured values collected from several papers.
Protocols differ between the studies behind these lines. Numbers after ± are the reported error.

| SMILES | test | system | conditions | tissue uptake |
| --- | --- | --- | --- | --- |
| O=C(O)CCC(NP(=O)(O)OCCC[C@@H](NC(=O)CC[C@H](NC(=O)CCCCCNC(=O)c1ccc([18F])cc1)C(=O)O)C(=O)O)C(=O)O (stereo partly drawn) |  | mouse, CWR22Rv1 xenograft, lung | dose not given, 4 h, blocking agent pre-dosed | 0.05 ± 0.005 %ID/g |
| CC(C)C[C@H](NC(=O)C[C@H](O)[C@H](CC(C)C)NC(=O)[C@H](Cc1c[nH]cn1)NC(=O)CNC(=O)[C@@H](NC(=O)[C@H](C)NC(=O)[C@H](Cc1c[nH]c2ccccc12)NC(=O)[C@H](CCC(N)=O)NC(=O)[C@@H](Cc1ccccc1)NC(=O)CCNC(=O)CCNC(=O)CN1CCN(CC(=O)O)CCN(CC(=O)O)CCN(CC(=O)O)CC1)C(C)C)C(N)=O [lutetium-177 labelled] |  | mouse PC-3 xenograft, tumour | intravenous, 200 pmol, 24 h, without PA | 4.2 ± 1 %ID/g |
| CC(C)[C@H](NC(=O)[C@@H]1CCCN1C(=O)[C@H](CCCNC(=N)N)NC(=O)[C@H](CS)NC(=O)[C@H](Cc1c[nH]c2ccccc12)NC(=O)[C@H](CCCNC(=N)N)NC(=O)[C@@H](Cc1ccccc1)NC(=O)[C@H](Cc1c[nH]cn1)NC(=O)[C@H](CCC(=O)O)NC(=O)[C@H](CS)NC(=O)[C@H](CS)NC(=O)[C@@H]1CC(=O)N[C@@H](CCCNC(=N)N)C(=O)NCC(=O)N[C@@H](CC(=O)O)C(=O)N[C@H](Cc2ccc(O)cc2)C(=O)N1)C(N)=O [technetium-99m labelled] |  | C57 mouse, female, B16/F1 melanoma, muscle | intravenous, 0.037 MBq, 4 h | 0.2 ± 0.02 %ID/g |
| CCCC[C@H](NC(=O)CNC(=O)CNC(=O)CN1CCN(CC(=O)O)CCN(CC(=O)O)CC1)C(=O)N[C@H]1CC(=O)NCCCC[C@@H](C(N)=O)NC(=O)[C@H](Cc2c[nH]c3ccccc23)NC(=O)[C@H](CCCNC(=N)N)NC(=O)[C@@H](Cc2ccccc2)NC(=O)[C@H](Cc2c[nH]cn2)NC1=O [copper-64 labelled] |  | female C57 mouse, B16/F1 melanoma, lung | intravenous, 0.037 MBq, 24 h | 0.37 ± 0.11 %ID/g |
| CN(C(=O)Cn1c(=O)oc2ccc(-c3ccc(OCC[18F])cc3)cc21)c1ccccc1 |  | male ddY mouse, femur | intravenous, 1.85 MBq, early phase after injection | ~3.8 %ID/g |
| O=C(CCCCC[N+]#[C][99Tc-5]([C]#[N+]CCCCCC(=O)N[C@H]1C(O)O[C@H](CO)[C@@H](O)[C@@H]1O)([C]#[N+]CCCCCC(=O)N[C@H]1C(O)O[C@H](CO)[C@@H](O)[C@@H]1O)([C]#[N+]CCCCCC(=O)N[C@H]1C(O)O[C@H](CO)[C@@H](O)[C@@H]1O)([C]#[N+]CCCCCC(=O)N[C@H]1C(O)O[C@H](CO)[C@@H](O)[C@@H]1O)[C]#[N+]CCCCCC(=O)N[C@H]1C(O)O[C@H](CO)[C@@H](O)[C@@H]1O)N[C@H]1C(O)O[C@H](CO)[C@@H](O)[C@@H]1O (stereo partly drawn) |  | BALB/c nude mouse, U87 MG xenograft, brain | dose not given | 0.02 %ID/g |
| CC(C)[C@H](NC(=O)[C@@H]1CCCN1C(=O)[C@H](CCCNC(=N)N)NC(=O)[C@H](CS)NC(=O)[C@H](Cc1c[nH]c2ccccc12)NC(=O)[C@H](CCCNC(=N)N)NC(=O)[C@@H](Cc1ccccc1)NC(=O)[C@H](Cc1c[nH]cn1)NC(=O)[C@H](CCC(=O)O)NC(=O)[C@H](CS)NC(=O)[C@H](CS)NC(=O)COCCOCCNC(=O)[C@@H]1CC(=O)N[C@@H](CCCNC(=N)N)C(=O)NCC(=O)N[C@@H](CC(=O)O)C(=O)N[C@H](Cc2ccc(O)cc2)C(=O)N1)C(N)=O [technetium-99m labelled] |  | nude mouse, M21 melanoma xenograft, liver | intravenous, 2 h | 1.12 ± 0.05 %ID/g |
| COC(=O)c1ccc(-c2cn(Cc3cc(Cl)ccc3O[11CH3])nn2)cc1 | PET/CT | C57BL/6 mouse, liver | 2 min | 3.95 %ID/cc |
| O=C([O-])CN1CCN(CC(=O)[O-])CCN(CC(=O)NCCc2ccc3c(c2)C2C=CCC2C(c2cc4c(cc2Br)OCO4)N3)CCN(CC(=O)[O-])CC1.[111In+3] (stereo not drawn) |  | mouse, Hec50 endometrial tumour, lungs | 4 h post injection | 0.48 ± 0.1 %ID/g |
| CN(C)c1ccc(-c2nc3ccc(OCCCCCN4CCN5CCN(CC4)CC(=O)[O][Al]([18F])[O]C(=O)C5)cc3s2)cc1 |  | ICR mouse, spleen | intravenous, 60 min | 1.01 ± 0.4 %ID/g |
| CCCC[C@H](NC(=O)CNC(=O)CNC(=O)CN1CCN(CC(=O)O)CCN(CC(=O)O)CCN(CC(=O)O)CC1)C(=O)N[C@H]1CC(=O)NCCCC[C@@H](C(N)=O)NC(=O)[C@H](Cc2c[nH]c3ccccc23)NC(=O)[C@H](CCCNC(=N)N)NC(=O)[C@@H](Cc2ccccc2)NC(=O)[C@H](Cc2c[nH]cn2)NC1=O [copper-64 labelled] |  | female C57 mouse, B16/F1 melanoma, lung | intravenous, 0.037 MBq, 2 h | 3.93 ± 0.64 %ID/g |
| CCCC[C@H](NC(=O)CN1CCC(NC(=O)CN2CCN(CC(=O)O)CCN(CC(=O)O)CCN(CC(=O)O)CC2)CC1)C(=O)N[C@H]1CC(=O)NCCCC[C@@H](C(N)=O)NC(=O)[C@H](Cc2c[nH]c3ccccc23)NC(=O)[C@H](CCCNC(=N)N)NC(=O)[C@@H](Cc2ccccc2)NC(=O)[C@H](Cc2c[nH]cn2)NC1=O [gallium-68 labelled] | biodistribution | C57BL/6J mouse male tumour-bearing, seminal vesicle | 2 h post injection, unblocked | 0.4 ± 0.1 %ID/g |

Excerpt of the above:
| SMILES | test | system | conditions | tissue uptake |
| --- | --- | --- | --- | --- |
| CC(C)[C@H](NC(=O)[C@@H]1CCCN1C(=O)[C@H](CCCNC(=N)N)NC(=O)[C@H](CS)NC(=O)[C@H](Cc1c[nH]c2ccccc12)NC(=O)[C@H](CCCNC(=N)N)NC(=O)[C@@H](Cc1ccccc1)NC(=O)[C@H](Cc1c[nH]cn1)NC(=O)[C@H](CCC(=O)O)NC(=O)[C@H](CS)NC(=O)[C@H](CS)NC(=O)COCCOCCNC(=O)[C@@H]1CC(=O)N[C@@H](CCCNC(=N)N)C(=O)NCC(=O)N[C@@H](CC(=O)O)C(=O)N[C@H](Cc2ccc(O)cc2)C(=O)N1)C(N)=O [technetium-99m labelled] |  | nude mouse, M21 melanoma xenograft, liver | intravenous, 2 h | 1.12 ± 0.05 %ID/g |
